Experimental data of several laboratories.
Protocols differ between the studies behind these lines. ± gives the spread as reported.

Compound | target or system | test | system | conditions | quantity | result
COc1cccc(OC)c1-c1cc(C(=O)NC2(C(=O)O)C3CC4CC(C3)CC2C4)nn1-c1ccc(C(=O)N(C)CCCN(C)C(=O)[C@H](CCCCNC(=O)[C@H](CC(C)C)NC(=O)C2OC2C(=O)O)NC(=O)CN2CCN(CC(=O)[O-])CCN(CC(=O)[O-])CCN(CC(=O)[O-])CC2)cc1C(C)C.[177Lu+3] (mixture of isomers) |  |  | mouse, HT-29 xenograft, heart | 168 h post injection | tissue uptake | 0.034 %ID/g
CCCC[C@H](NC(=O)CCCCCCCNC(=O)CN1CCN(CC(=O)O)CCN(CC(=O)O)CC1)C(=O)N[C@H]1CC(=O)NCCCC[C@@H](C(N)=O)NC(=O)[C@H](Cc2c[nH]c3ccccc23)NC(=O)[C@H](CCCNC(=N)N)NC(=O)[C@@H](Cc2ccccc2)NC(=O)[C@H](Cc2c[nH]cn2)NC1=O [technetium-99m labelled] |  |  | C57 mouse, spleen | intravenous, 0.037 MBq, 2 h | tissue uptake | 0.07 ± 0.06 %ID/g
COc1cccc(OC)c1-c1cc(C(=O)NC2(C(=O)O)C3CC4CC(C3)CC2C4)nn1-c1ccc(C(=O)N(C)CCOCCN(C)C(=O)[C@H](CCCCNC(=O)[C@H](CC(C)C)NC(=O)C2OC2C(=O)O)NC(=O)CN2CCN(CC(=O)[O-])CCN(CC(=O)[O-])CCN(CC(=O)[O-])CC2)cc1C(C)C.[177Lu+3] (mixture of isomers) |  |  | mouse, HT-29 xenograft, muscle | 72 h post injection | tissue uptake | 0.06 %ID/g
CCCC[C@H](NC(=O)CCCCCCCNC(=O)CN1CCN(CC(=O)O)CCN(CC(=O)O)CC1)C(=O)N[C@H]1CC(=O)NCCCC[C@@H](C(N)=O)NC(=O)[C@H](Cc2c[nH]c3ccccc23)NC(=O)[C@H](CCCNC(=N)N)NC(=O)[C@@H](Cc2ccccc2)NC(=O)[C@H](Cc2c[nH]cn2)NC1=O [fluorine-18 labelled] |  |  | C57 mice, B16/F10 melanoma, heart | intravenous, 1 h, with: NDP-MSH 10 µg | tissue uptake | 0.5 ± 0.12 %ID/g
O=S(=O)(c1cccc(-c2ccc3ncnc(Nc4ccc(OCc5cccc(F)c5)c(Cl)c4)c3c2)c1)N1CCCCC1 | Leishmania major | intracellular amastigote growth, luciferase | RAW264.7 macrophages |  | EC50 | > 15 µM
CCCC[C@H](NC(=O)COCCOCCNC(=O)CN1CCN(CC(=O)O)CCN(CC(=O)O)CC1)C(=O)N[C@H]1CC(=O)NCCCC[C@@H](C(N)=O)NC(=O)[C@H](Cc2c[nH]c3ccccc23)NC(=O)[C@H](CCCNC(=N)N)NC(=O)[C@@H](Cc2ccccc2)NC(=O)[C@H](Cc2c[nH]cn2)NC1=O [technetium-99m labelled] |  |  | C57 mouse, normal organs | iv, 0.037 MBq, 2 h | tissue uptake | < 1.8 %ID/g
CC(C)Cc1ccc(C(C)C(=O)N[C@@H](CCCCNC(=O)CCOCCOCCOCCOCCOCCOCCNC(=O)CN2CCN(CC(=O)[O-])CCN(CC(=O)[O-])CCN(CC(=O)[O-])CC2)C(=O)Nc2cccc3c(C(=O)NCC(=O)N4CC(F)(F)C[C@H]4C#N)ccnc23)cc1.[177Lu+3] (stereo partly drawn) |  |  | mouse, U-87 MG tumour xenograft, brain | 48 h | tissue uptake | 0.01 %ID/g
Cc1cc(C)n(CCN(CCN)CCCCCCNC(=O)[C@@H](N)Cc2c[nH]cn2)n1.[99Tc+].[C-]#[O+].[C-]#[O+].[C-]#[O+] |  |  | BALB/c nude mice, A549 xenograft, tumor | intravenous, 24 h | tissue uptake | 0.76 ± 0.12 %IA/g
COc1cccc(OC)c1-c1cc(C(=O)NC2(C(=O)O)C3CC4CC(C3)CC2C4)nn1-c1ccc(C(=O)N(C)CCCN(C)CCCN(C)C(=O)[C@H](CCCCNC(=O)[C@H](CC(C)C)NC(=O)C2OC2C(=O)O)NC(=O)CN2CCN(CC(=O)[O-])CCN(CC(=O)[O-])CCN(CC(=O)[O-])CC2)cc1C(C)C.[177Lu+3] (mixture of isomers) |  |  | mouse HT-29 xenograft, small intestine | 168 h post injection, biodistribution | tissue uptake | 0.156 %ID/g
N#C[C@@H]1CCCN1C(=O)CNC(=O)c1ccnc2ccc(OCCCN3CCN(C(=O)CCc4ccc5c(c4)CN4CCN(Cc6cc(CCC(=O)O)ccc6O)CC(=O)[O][Al-]([18F])([O]C(=O)C4)[O]5)CC3)cc12 (stereo partly drawn) |  |  | BALB/c nude mice, U-87 MG xenograft, liver | 1 h, blocking, with: DOTA-FAPI-04 40 nmol/mouse co-injected | tissue uptake | 0.94 ± 0.59 %ID/g
N#C[C@@H]1CC(F)(F)CN1C(=O)CNC(=O)c1ccnc2c(NC(=O)[C@H](CCCCNC(=O)CCOCCOCCOCCOCCOCCOCCNC(=O)CN3CCN(CC(=O)[O-])CCN(CC(=O)[O-])CCN(CC(=O)[O-])CC3)NC(=O)CCCc3ccc(I)cc3)cccc12.[177Lu+3] |  |  | mouse, U-87 MG tumour xenograft, spleen | 72 h | tissue uptake | 0.83 ± 0.59 %ID/g
O=C(O)CCCOc1ccc([18F])cc1-c1cc(-c2ccccc2C(F)(F)F)n(-c2ccccc2)n1 |  |  | mouse, large intestine | intravenous, dose not given, 60 min | tissue uptake | 0.52 ± 0.08 %ID/g
COc1cccc(OC)c1-c1cc(C(=O)NC2(C(=O)O)C3CC4CC(C3)CC2C4)nn1-c1ccc(C(=O)N(C)CCOCCOCCN(C)C(=O)[C@H](CCCCNC(=O)[C@H](CC(C)C)NC(=O)C2OC2C(=O)O)NC(=O)CN2CCN(CC(=O)[O-])CCN(CC(=O)[O-])CCN(CC(=O)[O-])CC2)cc1C(C)C.[177Lu+3] (mixture of isomers) |  |  | mouse, HT-29 xenograft, lung | 24 h post injection | tissue uptake | 0.59 %ID/g
O=S(=O)(c1ccc(-c2ccc3ncnc(Nc4ccc(OCc5cccc(F)c5)c(Cl)c4)c3c2)cc1)N1CCSCC1 | Leishmania major | intracellular amastigote growth, luciferase | RAW264.7 macrophages |  | EC50 | > 15 µM
COc1cccc(OC)c1-c1cc(C(=O)NC2(C(=O)O)C3CC4CC(C3)CC2C4)nn1-c1ccc(C(=O)NCCNC(=O)[C@H](CCCCNC(=O)[C@H](CC(C)C)NC(=O)C2OC2C(=O)O)NC(=O)CN2CCN(CC(=O)[O-])CCN(CC(=O)[O-])CCN(CC(=O)[O-])CC2)cc1C(C)C.[177Lu+3] (mixture of isomers) |  |  | mouse, HT-29 xenograft, liver | 168 h post injection | tissue uptake | 1.4 %ID/g
CCCC[C@H](NC(=O)CNC(=O)CNC(=O)[C@H](CCCCNC(=O)[C@H](CC(=O)O)NC(=O)C(C)c1ccc(CC(C)C)cc1)NC(=O)CN1CCN(CC(=O)O)CCN(CC(=O)O)CCN(CC(=O)O)CC1)C(=O)N[C@H]1CC(=O)NCCCC[C@@H](C(N)=O)NC(=O)[C@H](Cc2c[nH]c3ccccc23)NC(=O)[C@H](CCCNC(=N)N)NC(=O)[C@@H](Cc2ccccc2)NC(=O)[C@H](Cc2c[nH]cn2)NC1=O (stereo partly drawn) [lutetium-177 labelled] |  |  | C57 mouse, muscle | intravenous, 2 h, with: 10 µg NDP-MSH co-injection | tissue uptake | 0.58 ± 0.26 %ID/g
O=C(NCC1OC2CCC=CCCC2O1)c1ccc([18F])nc1 (stereo not drawn) |  |  | healthy female BALB/c nude mice, pancreas | intravenous, 7.4 MBq per mouse, 5 min | tissue uptake | 4.6 ± 1.8 %ID/g
O=C(N/N=C/c1cc[n+](Cc2ccccc2)c2ccccc12)c1cccc(C(=O)N/N=C/c2cc[n+](Cc3ccccc3)c3ccccc23)c1 | MYC parallel G4 DNA | FRET melting |  | 1 µM, DNA 0.2 µM, with: duplex DNA competitor 10 µM | ΔTm | 6.1 ± 0.2 °C
N#C[C@@H]1CC(F)(F)CN1C(=O)CNC(=O)c1ccnc2c(NC(=O)[C@@H](N)CCCCNC(=O)CCOCCOCCOCCOCCOCCOCCNC(=O)CN3CCN(CC(=O)[O-])CCN(CC(=O)[O-])CCN(CC(=O)[O-])CC3)cccc12.[177Lu+3] |  |  | mouse, U-87 MG tumour xenograft, lung | 24 h | tissue uptake | 0.13 ± 0.08 %ID/g
C[n+]1ccc(/C=N/NC(=O)c2cccc(C(=O)N/N=C/c3cc[n+](C)c4ccccc34)n2)c2ccccc21 | MYC promoter parallel G-quadruplex DNA | UV melting |  | 3 µM, 1 mM potassium, with: DNA 3 µM | delta Tm | 25.2 °C
[123I]c1ccc2nc(-c3ccc(-n4ccnn4)nc3)cn2c1 |  |  | Wistar rat, male, adrenals | intravenous, 4 MBq, 30 min | tissue uptake | 12.3 ± 4.48 %ID/g
